Measured values of several laboratories.
Each numbered part is a random draw from the data of one study; scales do not carry over between parts. Changes are numbered by the printed parent chain.

Study 1
Target: Sal-like protein 4, full length isoform B (SALL4, Homo sapiens, UniProt Q9UJQ4-2, residues 1-616)
Technique: universal PBM
Form: double-stranded DNA, one strand shown
Sample: in vitro
Concentration: not given
Setting: 8-mer, flanks averaged, mean of replicates
Reading: higher = stronger binding
Construct (chain): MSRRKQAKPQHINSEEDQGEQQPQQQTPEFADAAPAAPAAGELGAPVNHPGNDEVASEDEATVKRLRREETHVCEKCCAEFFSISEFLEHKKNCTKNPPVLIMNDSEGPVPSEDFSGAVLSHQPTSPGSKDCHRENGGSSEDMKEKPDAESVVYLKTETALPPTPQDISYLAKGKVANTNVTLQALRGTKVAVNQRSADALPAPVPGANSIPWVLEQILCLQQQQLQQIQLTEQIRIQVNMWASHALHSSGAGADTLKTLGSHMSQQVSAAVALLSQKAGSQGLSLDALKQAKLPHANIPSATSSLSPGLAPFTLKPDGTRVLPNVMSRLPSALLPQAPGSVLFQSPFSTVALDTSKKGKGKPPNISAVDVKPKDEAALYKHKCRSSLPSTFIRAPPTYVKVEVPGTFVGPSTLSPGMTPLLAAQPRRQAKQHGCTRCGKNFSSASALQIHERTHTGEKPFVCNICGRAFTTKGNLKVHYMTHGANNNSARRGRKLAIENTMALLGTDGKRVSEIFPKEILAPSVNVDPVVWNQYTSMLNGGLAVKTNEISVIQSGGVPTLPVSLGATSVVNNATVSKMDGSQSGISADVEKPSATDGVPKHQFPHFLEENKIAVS
| Strand | E-score |
| --- | --- |
| CCGATGAC | -0.0561 |
| AAGAAGAG | 0.159 |
| CTAGGTGC | -0.206 |
| CCTCATAG | -0.0261 |
| GCAGAGCA | -0.0974 |
| TGCGCGCA | -0.0838 |
| CCATCGCA | -0.0348 |
| ATCTTGGC | 0.0464 |
| GGGAAGAA | -0.0368 |
| CCGCCCGC | -0.325 |
| GAGGTCGA | -0.136 |
| AAATTCCA | 0.268 |
| GTAATTAA | 0.307 |
| ATAATGCG | 0.312 |
| AGACCACT | 0.0048 |
| CCAGGAGA | -0.165 |

Study 2
Target: CREBZF, bZIP domain (human)
Technique: DHFR protein complementation
Sample: yeast
Setting: single substitutions, most at no-binding floor
Reference: wild-type JUN-FOS pair
Reading: higher = stronger binding
Starting sequence: JUN, bZIP domain (human); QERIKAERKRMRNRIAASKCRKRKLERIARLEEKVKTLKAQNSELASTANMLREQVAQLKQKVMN; partner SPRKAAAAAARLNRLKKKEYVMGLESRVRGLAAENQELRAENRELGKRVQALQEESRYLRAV
| Substitution | binding fitness |
| --- | --- |
| E44Q | -1.28 natural log |
| L52E | -1.49 natural log |
| S47E | -1.3 natural log |
| L38D | -1.53 natural log |
| L45Q | -1.39 natural log |
| S47H | -1.42 natural log |
| I28Q | -1.49 natural log |
| K36H | -1.52 natural log |
| E44C | -1.53 natural log |
| T37I | -1.43 natural log |
| M51A | -1.49 natural log |
| A46V | -1.49 natural log |
| Q55L | -1.45 natural log |
| E33D | -1.59 natural log |
| I28V | -1.46 natural log |
| L45H | -1.46 natural log |
| L38H | -1.49 natural log |
| K39Y | -1.42 natural log |
| V56T | -1.51 natural log |
| L31S | -1.46 natural log |
| A29I | -1.22 natural log |
| A29W | -1.41 natural log |
| A57T | -1.33 natural log |
| T37S | -1.37 natural log |
| V35N | -1.02 natural log |

Study 3
Target: Ras GTPase-activating protein-binding protein 1, full length (G3BP1, Homo sapiens, UniProt Q13283)
Chain of UniProt Q13283 (whole entry, looked up): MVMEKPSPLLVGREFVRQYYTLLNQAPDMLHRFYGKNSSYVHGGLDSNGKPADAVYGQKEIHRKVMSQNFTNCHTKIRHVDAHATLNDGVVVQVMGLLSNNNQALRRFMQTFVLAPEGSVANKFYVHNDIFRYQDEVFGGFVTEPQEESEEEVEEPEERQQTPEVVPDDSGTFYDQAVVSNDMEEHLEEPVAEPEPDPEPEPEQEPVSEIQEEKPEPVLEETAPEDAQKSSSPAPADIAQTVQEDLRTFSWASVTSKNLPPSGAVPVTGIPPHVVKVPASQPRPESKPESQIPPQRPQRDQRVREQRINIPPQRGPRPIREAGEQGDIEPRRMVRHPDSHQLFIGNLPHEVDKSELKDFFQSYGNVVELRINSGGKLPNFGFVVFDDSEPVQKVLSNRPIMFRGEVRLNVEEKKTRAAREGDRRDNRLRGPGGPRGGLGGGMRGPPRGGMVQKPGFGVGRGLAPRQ
Technique: RNA Bind-n-Seq
Form: RNA
Sample: in vitro
Concentration: 200 nM
Setting: whole 134-nt RNA, ends assumed
With: 150 mM KCl
Reference: input library
Reading: higher = stronger binding
Constant ends, left off below: GGGAGUUCUACAGUCCGACGAUC … UGGAAUUCUCGGGUGUCAAGG
| Strand | log2 enrichment |
| --- | --- |
| ACCAUGCAGGUGGGCAUCUUUGGGAAGUGGGGCAAGGGGGGGAUAGGGAGGGGGGUACCACUUUGGGAACAGGUGGUCCCAGGUCGUUUC | 1.4 |
| UCUUCCGUGACAUUUCAUUUGGGGAACAACUUUUCUCUUUACAGGCCCGAGUGACUAAGGGAUGUACCAUUGUUAAGCCUUUCAACCUGU | 0.967 |
| UCAAGUCCUGUGCUACACAUCGUAUGUACCGAAUCGGGGAAGGGAAGGGAAGGGAAAGUAUUAUGUUACGCCGUUCGGAUCUGCACUUCC | 1.21 |
| UAACUUUAGCGGAGGAUCUGAUGGAUAUGGCAGUGGACGUGGAUUUGGGGAUGGCUAUAAUGGGUAUGGAGGAGGACCUGGAGGUGGCAA | 0.459 |
| AAGUCCUGUGCUACACAUCGUAUGUACCGAAUCGGGAGGGAAAGGGUUUUUUUGGGAAAGUAUUAUGUUACGCCGUUCGGAUCUGCACUU | 0.221 |
| CCUGUGCUACACAUCGUAUGUACCGAAUCGGGGUUUUUUGGGUUUUUUGGGUUUUUUGGGGAAAGUAUUAUGUUACGCCGUUCGGAUCUG | -0.555 |
| CACAGACAACACGCACCCACACAGACACAGAGGGAAGAAAUUGGGAUGGGGACAGGGUGCACAGCAGGGCGGGGUAGGACCCCAGCCCCU | 0.844 |
| AGAAAGCCCAGGAGGAACCACCUGCCAAGCUGCUGGAUGACCUUUUCCGAAAGACCAAGGCAGCUCCCUGCAUCUAUUGGCUCCCACUGA | 0.182 |
| UACUAUCAAACAAUCGGAAACCACGCGUCCUACUACAAAGAUGCUCUGCGGUUUUUGGGCUGUGUUGACAUCAAGGAUCUACCAGGUAAC | -1.2 |
| CCUCAAGUCCUGUGCUACACAUCGUAUGUACCGAAUCGGUUUGGUGGAAAGGAAAGUAUUAUGUUACGCCGUUCGGAUCUGCACUUCCAG | -0.00438 |
| UGAAGACUAUGAGACUGCUCUAUCAGGAAAGGAAGCCCUUUCGGCUGCGCUGCGCUCACAAAACCUCACCAAGAGUACAGAGAACCACAG | 0.287 |
| UCCUGUGCUACACAUCGUAUGUACCGAAUCAAAUUUAAACCCCCCCAAAUUUUUUUAAAAAAGUAUUAUGUUACGCCGUUCGGAUCUGCA | 0.41 |
| UGUACAAACACUUUCCCAUCCCCCUCAUUAACCGGCUGGAGAAGCACUAUCUGGAUAUCAACACGGUGCUGGAGAAAUGGCAGAAGAGCA | -0.0138 |
| AAGUCCUGUGCUACACAUCGUAUGUACCGAAUCGGAAAAGGGGAAAAGGGAAAAGGGAAAGUAUUAUGUUACGCCGUUCGGAUCUGCACU | -0.386 |

Study 4
Target: Prothrombin, mature alpha-thrombin (F2, Homo sapiens, UniProt P00734)
Technique: aptamer microarray, sandwich
Form: DNA with 2'F-ANA
Sample: in vitro
Concentration: 200 nM
Setting: whole 15-mer aptamer, many near background
With: Cy3 exosite-II aptamer, 400 nM
Reading: higher = stronger binding
Strand: GGTTGGTGTGGTTGG
| Modification | mean fluorescence intensity [a.u.] |
| --- | --- |
| 2'F-ANA at 3 5 6 7 10 11 12 14 | 47.9 |
| 2'F-ANA at 2 3 4 6 9 10 13 14 | 149 |
| 2'F-ANA at 2 5 11 14 | 67.6 |
| 2'F-ANA at 3 5 8 9 10 11 12 13 14 | 54.2 |
| 2'F-ANA at 3 5 6 9 12 14 | 61.7 |
| 2'F-ANA at 1 4 5 6 9 10 14 15 | 49.4 |
| 2'F-ANA at 1 3 4 5 11 12 14 15 | 49.7 |
| 2'F-ANA at 2 3 7 9 10 12 14 | 339 |
| 2'F-ANA at 2 3 5 6 9 11 15 | 68.9 |
| 2'F-ANA at 1 4 8 11 | 130 |
| 2'F-ANA at 1 7 8 11 12 14 15 | 75.8 |
| 2'F-ANA at 2 3 4 5 6 7 10 11 14 15 | 56.4 |
| 2'F-ANA at 2 3 5 6 7 9 11 12 13 14 15 | 124 |
| 2'F-ANA at 1 3 4 5 6 7 10 11 12 13 14 | 50.4 |
| 2'F-ANA at 1 3 4 6 12 13 14 15 | 74 |
| 2'F-ANA at 1 2 3 5 8 11 14 | 45.6 |
| 2'F-ANA at 2 3 8 10 11 12 15 | 372 |
| 2'F-ANA at 3 5 7 8 10 12 13 14 15 | 56.3 |
| 2'F-ANA at 2 3 4 5 9 10 12 14 | 48.1 |
| 2'F-ANA at 1 3 8 12 | 579 |
| 2'F-ANA at 1 5 9 13 | 47.1 |
| 2'F-ANA at 2 3 4 5 8 9 10 15 | 81.3 |
| 2'F-ANA at 2 3 4 5 6 7 10 11 13 14 | 47.9 |
| 2'F-ANA at 1 2 5 6 8 10 11 15 | 54 |
| 2'F-ANA at 1 2 9 10 11 12 | 61.5 |

Study 5
Target: CCND1, cyclin fold, Cln2 fusion (human)
Technique: yeast growth competition, sequencing
Sample: yeast
Setting: weak parent motif
Reference: not given
Reading: higher = stronger binding
Starting sequence: KIF20B docking peptide (human); KRAKRKLYTSEIS
| Substitution | normalised enrichment score |
| --- | --- |
| I12A | -0.00749 |
| K4A | 0.0807 |
| T9A | -0.3 |
| S13A | -0.101 |
| S10A | -0.443 |
| L7A | 0.00974 |

Study 6
Target: ABI1, truncated, D143A, DHFR fusion (Arabidopsis thaliana, UniProt P49597)
Technique: DHFR PCA, dose-response
Sample: yeast
Setting: Hill fit, mean, not affinity
With: (+)-ABA, dose series
Reading: lower = more sensitive
Starting sequence: PYL1, truncated, DHFR fusion (Arabidopsis thaliana, UniProt Q8VZS8); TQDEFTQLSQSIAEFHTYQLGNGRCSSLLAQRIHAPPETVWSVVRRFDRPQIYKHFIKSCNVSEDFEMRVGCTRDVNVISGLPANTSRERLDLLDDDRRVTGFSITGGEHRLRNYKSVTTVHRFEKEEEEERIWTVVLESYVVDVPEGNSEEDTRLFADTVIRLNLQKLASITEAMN
| Substitution | ABA EC50 |
| --- | --- |
| D159E | 6.03 µM |
| G102R | 100 µM |
| L29H | 4.26 µM |
| E127Y | 4.16 µM |
| D144H | 85 µM |
| E131W | 16.3 µM |
| E125P | 2.04 µM |
| C25G | 135 µM |
| S26V | 15.2 µM |
| C72T | 4.84 µM |
| V136K | 261 µM |
| L91F | 421 µM |
| H55V | 0.115 µM |
| G107D | 29.8 µM |
| G23W | 39.2 µM |
| E38Q | 4.08 µM |
| F15V | 59.2 µM |

Excerpt of the above (study 4):
| Modification | mean fluorescence intensity [a.u.] |
| --- | --- |
| 2'F-ANA at 2 3 5 6 7 9 11 12 13 14 15 | 124 |
| 2'F-ANA at 1 7 8 11 12 14 15 | 75.8 |
| 2'F-ANA at 1 2 5 6 8 10 11 15 | 54 |
| 2'F-ANA at 1 2 3 5 8 11 14 | 45.6 |
| 2'F-ANA at 2 3 8 10 11 12 15 | 372 |
| 2'F-ANA at 1 3 4 6 12 13 14 15 | 74 |
| 2'F-ANA at 3 5 7 8 10 12 13 14 15 | 56.3 |
| 2'F-ANA at 2 5 11 14 | 67.6 |
| 2'F-ANA at 1 2 9 10 11 12 | 61.5 |
| 2'F-ANA at 2 3 5 6 9 11 15 | 68.9 |
| 2'F-ANA at 2 3 4 5 6 7 10 11 13 14 | 47.9 |
| 2'F-ANA at 2 3 7 9 10 12 14 | 339 |
| 2'F-ANA at 2 3 4 5 8 9 10 15 | 81.3 |
